Experimental data collected from several papers.
A part holds a random share of what one study measured.

Set 1
Target: RNA binding protein fox-1 homolog 2, RRM domain, GST-SBP tag (RBFOX2, Homo sapiens, UniProt O43251-10, residues 100-194)
Method: RNA Bind-n-Seq
Molecule type: RNA
Sample: in vitro
Tested at: 365 nM
Setting: natural RNA segment, single round, ends assumed
Relative to: no-protein control
Reading: higher = stronger binding
Constant ends, left off below: GGGAGUUCUACAGUCCGACGAUC … UGGAAUUCUCGGGUGCCAA
Construct (chain): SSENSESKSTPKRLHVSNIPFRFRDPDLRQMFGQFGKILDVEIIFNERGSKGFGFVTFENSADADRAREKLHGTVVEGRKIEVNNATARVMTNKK
Sequence | RBNS enrichment (R)
GUCCCCUGGGGCAUCUCUGUCCCCUCCACCUGCCCAAGACCCAACUCUAGGAUGAAGGCCUUGAAUAUCGAUCGCUGCCAGUCCCUAAUAAGACUUUCCCUGCCAACCAG | 0.277
AAGCCCUUCUGUGGGUCACCUUUCUCCUCACCCAGCCCCUUGCUCUUCCCUUUUGAAAGGCCCGUGUGUUUUCUUUCCUUACCCUGUGCUUGCUCAUGUCUACUCCGGUU | 0.799
AGGCCUCUCCUGCUCAGUCUAGCUCUACAAAGUUCUGUAAAAGACUGGUCCGCAUAUAUAAAGGUCACCAGGAAGCACAGUCAUAAACCUGGUCCCCCACCUAUCAGCAC | 0.398
UGACCUUUGUUCUCCAGACCUGACCCAGGUAGGCAAGGGUACCCUCCCAGUCUCACCUACCAUACUGUGCCAUCUCUAGCCAAGCAAGCCAGGUUUAGAGAAGGGUCAAA | 0.348
UUCAUAAAUGAUAAAUGAUUCUGAAUGUUAGUGUUUUAUGUUCAUAUAGGAAAUAUUUUCAUUGAGUCCAAAAUACCACUGUUUUGUUGAUGGACUUGAAUGCAUUUUUG | 2.01
UCGGGUUCUCUGUAAUACUCAAGUCCUCUCUCAUUCUUACCUACCUCGACUCUUGAGAGGGAGGCUUUGGUAUCCUUGGGUCUCAGCAUGGACAGUUAUGUAUAUCUACU | 1.82
GGGGAUAGCAAAGUAGCACUUUACAAAUGGCCAUGGCGUUCAUCCCAAGAGCCACCAGCUCUUCUUACCAUACCACUUCCUAACUCCUGUAAGGAUGAGCCCAGUUAGUA | 0.922
GACUCCACUCACGGGCCAAGUUUGGCCCAGUCAUUUUUGUAUGGGGAAAAAACUAAAAAGGUUUUUUACAUUUUUAAAAGGAAGACAUUCGUGACUGAGACCAUACGUGG | 0.567
CCCCGCCCAGCUUAUCAACUCGUCCCCUCUUCCACACCUUCCCAGCAUCACAGUCAGAGGUCAGCAGGAAGCUGAGUCAUUACCUUCUUGGUGACCUCCCCCACCAUCUU | 0.876

Set 2
Target: Centromere-binding protein 1, full length, N-terminal tag (CBF1, Saccharomyces cerevisiae, UniProt P17106, residues 1-351)
UniProt P17106, sequence (whole entry, looked up): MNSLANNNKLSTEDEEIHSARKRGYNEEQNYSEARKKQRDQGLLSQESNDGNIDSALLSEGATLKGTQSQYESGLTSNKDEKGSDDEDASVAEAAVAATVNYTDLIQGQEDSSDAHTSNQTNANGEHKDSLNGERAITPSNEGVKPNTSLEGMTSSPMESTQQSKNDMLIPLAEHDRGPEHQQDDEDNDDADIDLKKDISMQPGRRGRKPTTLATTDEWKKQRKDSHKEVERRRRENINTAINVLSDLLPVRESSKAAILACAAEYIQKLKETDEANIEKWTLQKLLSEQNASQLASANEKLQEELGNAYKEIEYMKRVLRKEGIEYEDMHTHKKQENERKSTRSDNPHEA
Method: protein-binding microarray
Molecule type: double-stranded DNA, one strand shown
Sample: in vitro
Tested at: 0.8 µM
Setting: whole 60-bp probe, no competitor
Reading: higher = stronger binding
Constant ends, left off below: … GTCTTGATTCGCTTGACGCTGCTG
Sequence | fluorescence intensity [a.u.]
TGTACGAAGCTATCTATCGTGTCTATAGTAGTTAGG | 523
GAAGTATATAGTCATAAGGTGACACAGCGTGGGTAG | 569
GAATCTATTCAGTCGCACGCGTTAACTCTTTGCTAG | 573
GAAAGTTCAGCCTGGAACGTGTTGAACAGAGATTAG | 548
CTATTCGGAGTTTCTCATGTGTTCTAGAAGATTTTC | 556
CTACTTGTTGCAATAAGCGTGAGGTATGCCGAGTTC | 512
CCTAACTACTATATTCATGATCAATAGCTTCGTACA | 514
CTATATAAAACTGCTCATCAGATTCATCCTGCTTTC | 509
CTACTTCCCATTCATGATGTGATTACGCATTTTTTC | 552

Set 3
Target: Histone acetyltransferase KAT6A, winged helix 1, GST fusion (KAT6A, Homo sapiens, UniProt Q92794, residues 1-85)
Method: protein binding microarray
Molecule type: double-stranded DNA, one strand shown
Sample: in vitro
Tested at: not given
Setting: 8-mer, flanks averaged, mean of 2 arrays, mostly near background
Relative to: not given
Reading: higher = stronger binding
Target sequence (chain): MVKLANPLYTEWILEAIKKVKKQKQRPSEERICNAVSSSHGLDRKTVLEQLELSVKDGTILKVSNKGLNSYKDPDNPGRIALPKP
Sequence | E-score
TACGTCAA | -0.0317
CCCAGCAC | 0.0497
GTACGAAA | -0.104
CACATGAA | -0.116
ATGTAGAG | -0.256
CCGGGAGC | 0.247
AGCTTAGC | -0.00856
TCCGACGA | 0.103
ACGTGTAA | -0.0677
GTGGCTTA | -0.128
GATTGCGA | 0.14

Single results of other studies
Substance | target | test | test system | setting | scale | quantity | result
PhoQ, residues 284 288 289 292 302 303 TNASYF | PhoP, residues 12 14 15 18 19 GQALL (Escherichia coli, UniProt P23836) | Sort-seq, refers to: YFP reporter | E. coli | PhoQ-PhoP variant library, with: 10 µM Mg2+ | relative to: high Mg2+ state, higher = stronger signaling | fold induction | 4.76

Some of these lines once more (set 1):
Sequence | RBNS enrichment (R)
UGACCUUUGUUCUCCAGACCUGACCCAGGUAGGCAAGGGUACCCUCCCAGUCUCACCUACCAUACUGUGCCAUCUCUAGCCAAGCAAGCCAGGUUUAGAGAAGGGUCAAA | 0.348
AGGCCUCUCCUGCUCAGUCUAGCUCUACAAAGUUCUGUAAAAGACUGGUCCGCAUAUAUAAAGGUCACCAGGAAGCACAGUCAUAAACCUGGUCCCCCACCUAUCAGCAC | 0.398
